Published values from different studies.
Protocols differ between the studies behind these lines. Values joined by “and” are separate records of one study, mostly repeats; a detail may differ.
Target: Serine/threonine-protein kinase Nek2 (NEK2, Homo sapiens, UniProt P51955)

Compound	test	test system	conditions	how to read	measurement	result
C=CC(=O)N1CCc2ccc(-n3c(=O)ccc4cnc5ccc(-c6cnn(C)c6)cc5c43)cc21	KINOMEscan	–	1 µM	baseline: DMSO control	remaining binding	92%
Cc1cccc(O[C@H]2CCC[C@@H](C(C)CNCc3ccncc3)C2)c1 (relative stereo)	enzyme activity, inhibitor	–	1 µM	–	inhibition	1%
O=C=[N][Ru-4]123([n]4c5ccc(O)cc5c5c6c(c7cc(F)c[n+]1c7c54)C(=O)NC6=O)[S+]1CC[S+]2CC[S+]3CC1 (stereo not shown)	enzyme activity	–	100 nM, human enzyme, added: 10 µM ATP	baseline: untreated	remaining activity	105%
O=C(O)CCC(=O)c1cccc(NS(=O)(=O)c2c[nH]c3ncccc23)c1	kinase activity, radiometric	–	10 µM	–	remaining activity	105%
Nc1nc(Nc2ccccc2)sc1C(=O)c1ccccc1	enzyme activity, inhibitor	–	10 µM	–	remaining activity	68%
NC(=O)C[C@H]1CCc2sc3ncnc(O[C@H]4CC[C@H](N5CCOCC5)CC4)c3c21	enzyme activity, inhibitor	–	10 µM	–	inhibition	0%
Cc1ccc(C)c(-c2ccc3nc(NC(=O)C4CCCCC4)nn3c2)c1	enzyme activity, Dundee kinase panel	–	10 µM	–	remaining activity	77%
CC(C)=CC1OC(C)(C)C2C=C3C(=O)C(Cl)=CC(O)C3C3C(O)C4OC4C(=O)C132 (stereo not shown)	cell-free assay, competition with immobilised ligand	–	10 µM	–	remaining binding	94%
CN1C[C@@H](c2c[nH]c3cc(Br)ccc23)NC[C@@H]1c1c[nH]c2cc(Br)ccc12	enzyme activity, inhibitor	–	10 µM	–	remaining activity	100%
COc1cc(Nc2nc(C)cc(-c3cnn4nc(OC)ccc34)n2)cc(C(F)(F)F)c1	inhibitor	–	1 µM	baseline: control	remaining activity	98%
CCN1CCN(Cc2ccc(C(=O)Nc3ccc(C)c(NCc4cnc5[nH]ccc5c4OC)c3)cc2C(F)(F)F)CC1	binding, competition with immobilised ligand	–	1 µM	–	remaining binding	75%
CCn1cc(C(=O)O)c(=O)c2c(N)c(F)c(NC3CCCCC3)cc21	kinase activity	–	0.1 µM, added: ATP at Km	–	inhibition	18.9%
Cc1[nH]nc2c1N=C(c1ccccc1Cl)c1cnc(N3CCOCC3)cc1N2	enzyme activity, inhibitor	–	0.5 µM	–	inhibition	3.2%
C=CC(=O)Nc1cccc(-c2cnc3[nH]cc(C(=O)NC(C)(C)C)c3n2)c1	kinase activity	–	0.1 µM	–	inhibition	13% and 15%
CS(=O)(=O)Nc1cccc(-c2csc3cnc(Nc4ccc(N5CCN(CCCCCOc6cccc7c6C(=O)N(C6CCC(=O)NC6=O)C7=O)CC5)cc4)nc23)c1 (stereo not shown)	probe labelling, inhibitor, KiNativ chemoproteomics	MOLT-4	1 µM	–	inhibition	22.7%
Cc1nc2c(F)cc(-c3nc(Nc4ccc(CNC(=O)CCCCCCC(=O)NO)cc4)ncc3F)cc2n1C(C)C	enzyme activity, inhibitor	–	1 µM	–	inhibition	76%
Cc1cccc(-c2ccc3nc(NC(=O)C4CCCCC4)nn3c2)c1	enzyme activity, Dundee kinase panel	–	10 µM	–	remaining activity	95%
O=C(Cc1ccc(OCc2ccccc2)cc1)NC1(C(=O)O)CCN(C(=O)c2ccc(-c3cccc(Cl)c3)cc2)CC1	enzyme activity, inhibitor	–	10 µM	–	activity vs control	102%
COc1c(Cl)cccc1Nc1c(-c2ccncc2C#C[C@@]2(C)CCCN2C(=O)/C=C/CN(C)C)[nH]c2c1C(=O)NCC2	binding, competition with immobilised ligand	–	3 µM	–	remaining binding	81%
COc1cc(-n2cc3cc(F)cc(C(N)=O)c3n2)cc(Cl)c1C1CC(O)(CCO)Cc2ccccc21 (stereo not shown)	enzyme activity, inhibitor	–	10 µM	–	inhibition	0.79%
CN1CC[C@@H](COc2cnc(C#N)cc2-c2ccn3nc(NC(=O)C4CC4)cc3c2)C1	enzyme activity, inhibitor	–	1 µM	–	inhibition	-5%
CN1CCN(Cc2ccc(-c3ccc(CO[C@H]4CCC[C@@H]4NC(=O)c4cc(-c5cnn(C)c5)cnc4N)cc3)cc2)CC1	enzyme activity, inhibitor	–	0.1 µM	–	inhibition	2%

Repeated from above:
Compound	test	test system	conditions	how to read	measurement	result
Cc1nc2c(F)cc(-c3nc(Nc4ccc(CNC(=O)CCCCCCC(=O)NO)cc4)ncc3F)cc2n1C(C)C	enzyme activity, inhibitor	–	1 µM	–	inhibition	76%
